Results pooled from the literature.
Compare with care: the assays were run in different laboratories.

SMILES	host	matrix	route	dose	setting	together with	Tmax
COc1cccc2c1C(=O)c1c(O)c3c(c(O)c1C2=O)C[C@@](O)(C(=O)CO)C[C@@H]3O[C@H]1C[C@H](N)[C@H](O)[C@H](C)O1	mouse, E0771 tumour-bearing	liver	intravenous	92 µmol/kg			0.0833 h
Cc1cc(-c2cc(OC(=O)c3ccccc3)ccc2Cl)cc2nnc(Nc3ccc(OCCN4CCCC4)cc3)nc12	C57BL/6 mouse	retina	topical	1%			1 h
CCOc1ccc(NC(=S)N(CCO)Cc2cc3cc(C)cc(C)c3[nH]c2=O)cc1	C57BL/6J mouse	plasma	oral	3 mg/kg		ABT 50 mg/kg oral pretreatment 2 h before	4 h
Cc1c2oc3c(C)ccc(C(=O)N[C@@H]4C(=O)N[C@H](C(C)C)C(=O)N5CCC[C@H]5C(=O)N(C)CC(=O)N(C)[C@@H](C(C)C)C(=O)O[C@@H]4C)c3nc-2c(C(=O)N[C@@H]2C(=O)N[C@H](C(C)C)C(=O)N3CCC[C@H]3C(=O)N(C)CC(=O)N(C)[C@@H](C(C)C)C(=O)O[C@@H]2C)c(N)c1=O	mouse, Abcc2−/− knockout, FVB background	brain	intravenous	0.5 mg/kg			0.5 h
Cc1ccc(Nc2nccc(N(C)c3ccc4c(C)n(C)nc4c3)n2)cc1S(N)(=O)=O	mouse non-tumour-bearing	plasma	oral	150 mg/kg single	alone or with topotecan		2 h
C#Cc1cccc(Nc2ncnc3cc(OCCOC)c(OCCOC)cc23)c1	NOD/SCID mouse, male	whole blood or plasma	oral	12.5 mg/kg every 12 h	day 1		3 h
COc1ccc(CCN2CCC(Nc3nc4ccccc4n3Cc3ccc(F)cc3)CC2)cc1	C2 mouse male	whole blood	intravenous	8 mg/kg			0.467 h
CC(C)NC(=O)COc1cccc(-c2nc(Nc3ccc4[nH]ncc4c3)c3ccccc3n2)c1	male C57BL/6 mouse	brain	oral	100 mg/kg	one-compartment model		2 h

For quick reference, copied from above:
SMILES	host	matrix	route	dose	setting	together with	Tmax
CCOc1ccc(NC(=S)N(CCO)Cc2cc3cc(C)cc(C)c3[nH]c2=O)cc1	C57BL/6J mouse	plasma	oral	3 mg/kg		ABT 50 mg/kg oral pretreatment 2 h before	4 h
